Results collected from several papers.
Each numbered part is a random draw from the data of one study; scales do not carry over between parts. Values joined by “and” are separate records of one study, mostly repeats; a detail may differ. Substitutions count along the parent as printed. pEC50: −log10 of the molar value.
Sequence of UniProt P31749 (whole entry, looked up): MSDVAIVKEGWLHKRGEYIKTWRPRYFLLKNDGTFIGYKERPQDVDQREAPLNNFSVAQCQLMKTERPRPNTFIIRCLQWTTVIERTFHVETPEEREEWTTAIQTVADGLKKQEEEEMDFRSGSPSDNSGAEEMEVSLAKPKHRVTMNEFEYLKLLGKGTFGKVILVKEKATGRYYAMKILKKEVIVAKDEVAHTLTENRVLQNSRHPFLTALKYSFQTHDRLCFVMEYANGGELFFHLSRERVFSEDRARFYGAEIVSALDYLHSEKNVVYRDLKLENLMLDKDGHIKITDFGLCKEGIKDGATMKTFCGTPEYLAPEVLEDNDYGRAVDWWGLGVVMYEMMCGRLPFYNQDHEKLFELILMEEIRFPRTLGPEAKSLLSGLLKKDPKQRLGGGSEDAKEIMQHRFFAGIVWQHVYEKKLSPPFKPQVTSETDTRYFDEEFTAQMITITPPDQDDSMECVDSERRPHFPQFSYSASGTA

Set 1 — read-out: enzyme activity; mode: inhibitor; concentration: 0.5 µM; reference: control; quantity: remaining activity
Target: Myosin light chain kinase, smooth muscle (MYLK, Homo sapiens, UniProt Q15746)
Sequence of UniProt Q15746 (whole entry, looked up): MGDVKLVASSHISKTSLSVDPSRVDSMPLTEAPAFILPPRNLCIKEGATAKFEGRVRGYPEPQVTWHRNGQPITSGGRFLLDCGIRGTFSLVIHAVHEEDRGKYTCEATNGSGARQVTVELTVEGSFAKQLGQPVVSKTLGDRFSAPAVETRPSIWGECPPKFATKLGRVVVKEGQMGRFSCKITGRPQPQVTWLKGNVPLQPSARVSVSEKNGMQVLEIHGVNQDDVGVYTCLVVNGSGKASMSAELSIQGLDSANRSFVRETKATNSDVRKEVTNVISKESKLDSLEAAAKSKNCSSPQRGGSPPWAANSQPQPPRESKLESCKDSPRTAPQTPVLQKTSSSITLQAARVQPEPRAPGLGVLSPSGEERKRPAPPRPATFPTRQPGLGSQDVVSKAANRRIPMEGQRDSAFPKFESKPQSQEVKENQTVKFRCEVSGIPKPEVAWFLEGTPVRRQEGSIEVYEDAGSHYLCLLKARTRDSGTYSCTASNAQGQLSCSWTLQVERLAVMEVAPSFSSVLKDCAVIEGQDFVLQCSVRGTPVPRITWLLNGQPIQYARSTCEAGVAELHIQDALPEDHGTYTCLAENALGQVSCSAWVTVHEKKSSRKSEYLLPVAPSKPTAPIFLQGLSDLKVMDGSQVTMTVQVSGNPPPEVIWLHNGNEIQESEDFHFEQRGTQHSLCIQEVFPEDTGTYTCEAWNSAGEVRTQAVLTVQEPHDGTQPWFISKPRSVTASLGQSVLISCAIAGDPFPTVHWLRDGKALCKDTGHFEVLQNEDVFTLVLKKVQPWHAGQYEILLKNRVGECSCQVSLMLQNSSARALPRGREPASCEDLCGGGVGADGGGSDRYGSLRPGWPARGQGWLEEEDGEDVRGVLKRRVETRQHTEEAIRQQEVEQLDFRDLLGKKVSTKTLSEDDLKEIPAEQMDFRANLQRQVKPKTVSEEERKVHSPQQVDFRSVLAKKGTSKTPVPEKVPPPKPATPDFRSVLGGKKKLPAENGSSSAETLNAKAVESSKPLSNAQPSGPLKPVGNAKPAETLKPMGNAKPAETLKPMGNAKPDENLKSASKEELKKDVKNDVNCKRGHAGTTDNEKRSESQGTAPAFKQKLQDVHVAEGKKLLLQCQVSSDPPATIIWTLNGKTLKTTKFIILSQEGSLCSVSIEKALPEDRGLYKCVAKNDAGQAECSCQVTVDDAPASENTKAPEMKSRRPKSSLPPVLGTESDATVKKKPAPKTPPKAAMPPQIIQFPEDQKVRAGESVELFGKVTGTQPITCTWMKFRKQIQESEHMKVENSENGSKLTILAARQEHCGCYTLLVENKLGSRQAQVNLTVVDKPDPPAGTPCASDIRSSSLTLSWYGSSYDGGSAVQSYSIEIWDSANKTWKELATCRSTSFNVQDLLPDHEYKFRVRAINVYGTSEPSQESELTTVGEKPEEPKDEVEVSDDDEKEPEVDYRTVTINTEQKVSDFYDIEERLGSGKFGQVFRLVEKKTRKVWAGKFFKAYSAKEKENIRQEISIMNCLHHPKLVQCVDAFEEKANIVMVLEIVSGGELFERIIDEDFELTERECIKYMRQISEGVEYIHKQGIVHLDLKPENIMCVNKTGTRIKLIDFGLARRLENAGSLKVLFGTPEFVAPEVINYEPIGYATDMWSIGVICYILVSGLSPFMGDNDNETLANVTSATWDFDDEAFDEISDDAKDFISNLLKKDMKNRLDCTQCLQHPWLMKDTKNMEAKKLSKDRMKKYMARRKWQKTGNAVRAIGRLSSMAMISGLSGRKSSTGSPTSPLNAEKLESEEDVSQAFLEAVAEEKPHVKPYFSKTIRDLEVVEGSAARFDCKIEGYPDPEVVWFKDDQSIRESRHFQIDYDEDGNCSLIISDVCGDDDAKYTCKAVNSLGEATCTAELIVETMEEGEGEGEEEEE
N#CC(=C(N)Sc1ccc(N)cc1)c1ccccc1C(F)(F)F: 94.9%
CC[n+]1c(/C=C/N(C)c2ccccc2)n(-c2ccccc2)c2ccc(-c3nc4ccccc4s3)cc21: 98.4%
COc1cc(Nc2c(C#N)cnc3cc(OCCCN4CCN(C)CC4)c(OC)cc23)c(Cl)cc1Cl: 72%
CC(C)(C)n1nc(Cc2cccc3ccccc23)c2c(N)ncnc21: 98.2%
CCCC(=O)Oc1ccc2[nH]c(C(=O)c3cc4ccccc4[nH]3)cc2c1: 102%
CCc1[nH]c(-c2ccc(OC)cc2)nc1-c1ccncc1: 104%
O=C1Cc2c([nH]c3ccc([N+](=O)[O-])cc23)-c2ccccc2N1: 88.8%
Nc1ncnc2c1cnn2-c1ccccc1: 99.7%

Set 2 — time: 6 days; reference: DMSO; quantity: relative cell count
SMILES: CC(C)C[C@@H]1NC(=O)[C@@H](N(C)C(=O)[C@H](CC2CCC2)NC(=O)[C@@H]2C[C@@H](F)CN2C(=O)C2(C(F)(F)F)CC(F)(F)C2)CCCCNC(=O)C2(CC2)NC(=O)[C@H](Cc2cc(Cl)ccc2Cl)N(C)C1=O
Jurkat DOX-inducible E2F1 WT, no doxycycline; 20 nM: 0.863 and 0.898 and 0.829
NCI-H82 DOX-inducible E2F1 WT, no doxycycline; 200 nM: 0.976 and 0.895 and 0.604
Jurkat DOX-inducible E2F1 WT, no doxycycline; 60 nM: 0.861 and 0.617 and 0.773
NCI-H82 DOX-inducible E2F1 WT, no doxycycline; 20 nM: 0.962 and 1 and 1.13
NCI-H82 DOX-inducible E2F1 WT, with doxycycline; 600 nM: 0.289 and 0.256 and 0.417
NCI-H82 DOX-inducible E2F1 WT, with doxycycline; 2 µM: 0.0669 and 0.0622 and 0.0921
NCI-H82 DOX-inducible E2F1 WT, with doxycycline; 60 nM: 0.925 and 0.982 and 0.904

Mixed results — CCNF: CCNF, cyclin fold, Cln2 fusion (human)
P1: viral docking peptide; PTARRRLLHDLDT; partner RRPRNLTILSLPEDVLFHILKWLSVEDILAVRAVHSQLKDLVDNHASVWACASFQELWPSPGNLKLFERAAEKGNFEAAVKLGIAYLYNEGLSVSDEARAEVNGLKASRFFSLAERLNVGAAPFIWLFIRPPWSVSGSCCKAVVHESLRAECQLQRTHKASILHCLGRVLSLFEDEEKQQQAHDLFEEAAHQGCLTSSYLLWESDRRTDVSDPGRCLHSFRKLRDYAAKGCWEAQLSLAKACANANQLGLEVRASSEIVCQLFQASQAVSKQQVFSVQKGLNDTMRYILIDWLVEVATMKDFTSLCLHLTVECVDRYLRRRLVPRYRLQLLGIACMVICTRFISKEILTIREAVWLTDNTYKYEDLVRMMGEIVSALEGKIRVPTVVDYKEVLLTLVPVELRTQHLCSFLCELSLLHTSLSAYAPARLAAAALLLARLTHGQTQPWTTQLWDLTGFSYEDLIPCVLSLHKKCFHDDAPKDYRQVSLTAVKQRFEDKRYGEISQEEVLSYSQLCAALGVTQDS
P1 R5K H9F  normalised enrichment score (CCNF; yeast growth competition, sequencing; yeast; strong parent motif; reference: not given, higher = stronger binding): 8.15
C=CC(=O)Nc1ccc2[nH]c(=O)n(C3CCN(Cc4ccc(-c5ccc6c(c5)NC(=O)CO6)cc4)CC3)c2c1  pEC50 (AKT1 (Homo sapiens, UniProt P31749); target engagement in cells, BRET): 5.46
P1 H9A  normalised enrichment score (CCNF; yeast growth competition, sequencing; yeast; strong parent motif; reference: not given, higher = stronger binding): 3.78
CC(C)n1cnc(-c2ccc(F)cc2)c1-c1ncc(C(=O)Nc2ccc(N3CCN(C)CC3)cc2)[nH]1  patients with Hypothyroidism (human, idiopathic pulmonary fibrosis; 60 mg once daily, trial, treatment-emergent): 0%

Some of these lines once more (set 2):
Jurkat DOX-inducible E2F1 WT, no doxycycline; 60 nM: 0.861 and 0.617 and 0.773
Jurkat DOX-inducible E2F1 WT, no doxycycline; 20 nM: 0.863 and 0.898 and 0.829
